Measurements of several laboratories.
Numbered parts are unrelated; each lists some results of a single study. Positions count from the first letter of the parent shown.

Sample 1
Target: RNA binding protein fox-1 homolog 2, RRM domain, GST-SBP tag (RBFOX2, Homo sapiens, UniProt O43251-10, residues 100-194)
Technique: RNA Bind-n-Seq
Molecule type: RNA
Sample: in vitro
Tested at: 365 nM
Setting: natural RNA segment, single round, ends assumed
Reference: no-protein control
Reading: higher = stronger binding
Constant ends, left off below: GGGAGUUCUACAGUCCGACGAUC … UGGAAUUCUCGGGUGCCAA
Residues (chain): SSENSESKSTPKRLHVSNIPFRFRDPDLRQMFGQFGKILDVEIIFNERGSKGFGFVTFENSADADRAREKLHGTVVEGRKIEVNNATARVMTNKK
Sequence	RBNS enrichment (R)
CUUUUCAGACUGGGGUGGGGGCUGAGCAUGCUUGUGCAGAAAGAAGCCAUAGCCAGAAAGGACAGAAUCUCUCCCCCACUCCCUUGCCCCAUAACCAAACAUAAGCUAGC	0.904
GUCCAAAAUACUGUUCUUUCCAGGCUAUGUAUAAAAUACAUAGUGAAAAUUGUUUAGUGAUAUUACAUUUAUUUAUCCAGAAAACUGUGAUUUCAGGAGAACCUAACAUG	0.45
CUUCCCUUAAGGAGCAAGAAGCGCCUUCUCUGUCAGGUAAGGGGAUAAGCUCUGCUGGAUCCAAGGGAUCCAGGCUAAGGGCGUUCAGUCUGCUGCAAACCAGUCUGGCC	0.19
GAUGUGGUUAAAAUUUUUGUAAUAUAUUUAAAUGUAUAUUUUUGAGAGAGAUACUACAUUGCCAAGGACUUUAUAAAUAAUCUUAAAUUAACUUACAAAUUUAUAAGAUG	0.757
UUGCAUAGAGGUUCAAGUUCAAAGCUCAGACACACCAGUCACUCAAACAACCGAAGCUGUGAAAAAGGUCGAAGAAACUGUGGCAACUUCAGAGAUGGAUGAAAGUUUGG	0.674
UGCAGGCUUCCCGUCACGUGUCCCUGCUGGAAGGCUAUUCAGUGUUUGUAUUUAUUGUGCCUUACAUAGGAAGGAAGGGACUCAACUGAAUCCCUCCUCCCUCUAAACAG	0.29
CACCAGCAGCACCCAGAGCCGCUCCUUGCUGCCCUAGAACUAGCAGUUAAAAGACUCCAGAAGCCUGUCUCCCCUGCCUGUGUCUGCUCUCCCUCUAUGUCUAUGGUGUC	0.883
GCAUGUCUCCCUGCCACCUGUCACCCAGGAGCUUUGACAUUAUUUCUGCUGCCAUACUCCCCUAGAACUGCUCGAACCCCCGUGCUUUUCUUUUUCUUCAUCUCCUUUUG	1.44

Sample 2
Target: Histone acetyltransferase KAT6A, both winged helices, GST fusion (KAT6A, Homo sapiens, UniProt Q92794, residues 1-181)
Technique: protein binding microarray
Molecule type: double-stranded DNA, one strand shown
Sample: in vitro
Tested at: not given
Setting: 8-mer, flanks averaged, mean of 2 arrays, mostly near background
Reference: not given
Reading: higher = stronger binding
Construct (chain): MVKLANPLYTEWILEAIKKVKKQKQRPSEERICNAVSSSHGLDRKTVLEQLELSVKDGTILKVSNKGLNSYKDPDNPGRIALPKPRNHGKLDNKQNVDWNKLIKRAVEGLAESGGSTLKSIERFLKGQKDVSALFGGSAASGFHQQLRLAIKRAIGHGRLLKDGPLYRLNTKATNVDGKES
Sequence	E-score
ACACATGA	-0.156
AGCTCCTG	-0.0812
AGAGTAAA	-0.0177
GCATTCGC	0.134
GGGGTAAC	-0.179
AGTACGCG	0.211
GTGGCAAA	-0.116
ATGCACTG	-0.271
GGAATCTA	-0.0617
CGTAAGAA	0.00982
AAGTCTCT	-0.277
CCCCCGAC	0.0796
GGGATTTA	0.107
CAAACCGG	0.1
ACGTGCCA	-0.143
CCTGTGAC	-0.181
TACACTAA	-0.0938
GTTCGGGA	-0.0317
GATACGAA	0.0107
AAAACGTG	0.00984
ACTAGCAT	-0.127
CAGGTGAG	-0.26
ACGCTAAC	0.159
GATCGAAC	-0.046

Sample 3
Target: FOXO3, forkhead domain (mouse, UniProt Q9WVH4, residues 31-263)
Chain of UniProt Q9WVH4 (31-263, looked up): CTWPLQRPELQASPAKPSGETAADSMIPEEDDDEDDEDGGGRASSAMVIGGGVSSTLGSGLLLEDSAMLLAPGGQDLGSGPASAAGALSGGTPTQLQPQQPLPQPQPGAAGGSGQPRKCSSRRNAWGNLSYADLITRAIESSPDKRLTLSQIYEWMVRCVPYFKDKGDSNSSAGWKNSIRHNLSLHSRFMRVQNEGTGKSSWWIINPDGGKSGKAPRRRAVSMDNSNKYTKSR
Technique: protein-binding microarray
Molecule type: hairpin DNA
Sample: in vitro
Tested at: not given
Setting: whole hairpin DNA, median over replicate spots
Reference: not given
Reading: higher = stronger binding
Sequence	median fluorescence [a.u.]
GAGGCCATGTCGACAACGCCTCCTGGCGTTGTCGACATGGCCTCACACTC (5mC at 11 33)	4450
GAGGCCTTGTAAACAACGCCTCCTGGCGTTGTTTACAAGGCCTCACACTC	4590
GAGGCCATCTAAACAACGCCTCCTGGCGTTGTTTAGATGGCCTCACACTC	4320
GAGGCCCGGCAAACAACGCCTCCTGGCGTTGTTTGCCGGGCCTCACACTC (5mC at 7 37)	5470
GAGGCCATGTACCCAACGCCTCCTGGCGTTGGGTACATGGCCTCACACTC	4170
GAGGCCGTGTAAACAACGCCTCCTGGCGTTGTTTACACGGCCTCACACTC (5mC at 38)	5490
GAGGCCATGCCGACAACGCCTCCTGGCGTTGTCGGCATGGCCTCACACTC (5mC at 33)	4620
GAGGCCATGTGACCAACGCCTCCTGGCGTTGGTCACATGGCCTCACACTC	4500
GAGGCCATGCAAAAAACGCCTCCTGGCGTTTTTTGCATGGCCTCACACTC	3990
GAGGCCCTGCAAACAACGCCTCCTGGCGTTGTTTGCAGGGCCTCACACTC (5mC at 7)	4940
GAGGCCATGTAACCCGCGCCTCCTGGCGCGGGTTACATGGCCTCACACTC	4690
GAGGCCATGTAAAAAACGCCTCCTGGCGTTTTTTACATGGCCTCACACTC	3460
GAGGCCATGCAGACAACGCCTCCTGGCGTTGTCTGCATGGCCTCACACTC	4580
GAGGCCATGGAACCAACGCCTCCTGGCGTTGGTTCCATGGCCTCACACTC (5mC at 35)	4210
GAGGCCATGTCAACAACGCCTCCTGGCGTTGTTGACATGGCCTCACACTC (5mC at 11)	4470
GAGGCCATGTAAACATCGCCTCCTGGCGATGTTTACATGGCCTCACACTC	4900
GAGGCCATGCGAACAACGCCTCCTGGCGTTGTTCGCATGGCCTCACACTC (5mC at 10 34)	4350

Sample 4
Target: ABI1, truncated, D143A, DHFR fusion (Arabidopsis thaliana)
Technique: DHFR PCA, deep sequencing
Sample: yeast
Setting: methotrexate growth selection, single substitutions
Added: (+)-ABA 58 µM
Reference: wild-type fitted maximum
Reading: higher = stronger binding
Starting sequence: PYL1, truncated, DHFR fusion (Arabidopsis thaliana); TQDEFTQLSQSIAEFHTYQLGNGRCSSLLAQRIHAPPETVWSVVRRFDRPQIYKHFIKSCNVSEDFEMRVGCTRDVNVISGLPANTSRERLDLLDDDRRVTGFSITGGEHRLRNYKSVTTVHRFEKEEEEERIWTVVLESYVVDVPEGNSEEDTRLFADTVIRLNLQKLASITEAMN
Variant	relative binding score [%]
T135C	84.9
S140G	9.38
T73D	48.5
F15R	39.1
L82R	-1.41
N85E	80.8
T73E	89.5
Q2D	83.2
A170D	24.4
E38W	64.7
L156R	63.9
N85T	91.7
V145S	32.8
I162T	19.2
H16V	5.16
R123A	101
D3T	82.7
T160A	60.4
S27F	-4.03
L156Q	71.6
N177M	79.8
G21D	87
H110C	17.3
S59E	87.2
S171G	77.2

Repeated from above (sample 4):
Variant	relative binding score [%]
S59E	87.2
V145S	32.8
S140G	9.38
T73E	89.5
I162T	19.2
N177M	79.8
L82R	-1.41
G21D	87
H16V	5.16
R123A	101
N85E	80.8
S27F	-4.03
